Assay results collected from several papers.
A part holds a random share of what one study measured. Changes are numbered by the printed parent chain. Numbers after ± are the reported error.

Study 1 — technique: MST; form: double-stranded DNA, one strand shown; library: dsDNA
Target: LiaR D191N (Enterococcus faecalis, UniProt R3G073)
Strand | Kd [µM]
ACTAGTCCTTACTAATGAGAAGAAAT | 21.9 ± 4.5
AGAAATCGTTCTTAAGTCCTATGACA | 0.39 ± 0.03
ACTAGTCCTTACTAATGAGAAGAAATCGTTCTTAAGTCCTATGACA | 0.63 ± 0.04

Single results of other studies
RPRD2 CID, to residue 161: RPRD2 CID, to residue 161 (Homo sapiens, UniProt Q5VT52)
UniProt Q5VT52, sequence (whole entry, looked up): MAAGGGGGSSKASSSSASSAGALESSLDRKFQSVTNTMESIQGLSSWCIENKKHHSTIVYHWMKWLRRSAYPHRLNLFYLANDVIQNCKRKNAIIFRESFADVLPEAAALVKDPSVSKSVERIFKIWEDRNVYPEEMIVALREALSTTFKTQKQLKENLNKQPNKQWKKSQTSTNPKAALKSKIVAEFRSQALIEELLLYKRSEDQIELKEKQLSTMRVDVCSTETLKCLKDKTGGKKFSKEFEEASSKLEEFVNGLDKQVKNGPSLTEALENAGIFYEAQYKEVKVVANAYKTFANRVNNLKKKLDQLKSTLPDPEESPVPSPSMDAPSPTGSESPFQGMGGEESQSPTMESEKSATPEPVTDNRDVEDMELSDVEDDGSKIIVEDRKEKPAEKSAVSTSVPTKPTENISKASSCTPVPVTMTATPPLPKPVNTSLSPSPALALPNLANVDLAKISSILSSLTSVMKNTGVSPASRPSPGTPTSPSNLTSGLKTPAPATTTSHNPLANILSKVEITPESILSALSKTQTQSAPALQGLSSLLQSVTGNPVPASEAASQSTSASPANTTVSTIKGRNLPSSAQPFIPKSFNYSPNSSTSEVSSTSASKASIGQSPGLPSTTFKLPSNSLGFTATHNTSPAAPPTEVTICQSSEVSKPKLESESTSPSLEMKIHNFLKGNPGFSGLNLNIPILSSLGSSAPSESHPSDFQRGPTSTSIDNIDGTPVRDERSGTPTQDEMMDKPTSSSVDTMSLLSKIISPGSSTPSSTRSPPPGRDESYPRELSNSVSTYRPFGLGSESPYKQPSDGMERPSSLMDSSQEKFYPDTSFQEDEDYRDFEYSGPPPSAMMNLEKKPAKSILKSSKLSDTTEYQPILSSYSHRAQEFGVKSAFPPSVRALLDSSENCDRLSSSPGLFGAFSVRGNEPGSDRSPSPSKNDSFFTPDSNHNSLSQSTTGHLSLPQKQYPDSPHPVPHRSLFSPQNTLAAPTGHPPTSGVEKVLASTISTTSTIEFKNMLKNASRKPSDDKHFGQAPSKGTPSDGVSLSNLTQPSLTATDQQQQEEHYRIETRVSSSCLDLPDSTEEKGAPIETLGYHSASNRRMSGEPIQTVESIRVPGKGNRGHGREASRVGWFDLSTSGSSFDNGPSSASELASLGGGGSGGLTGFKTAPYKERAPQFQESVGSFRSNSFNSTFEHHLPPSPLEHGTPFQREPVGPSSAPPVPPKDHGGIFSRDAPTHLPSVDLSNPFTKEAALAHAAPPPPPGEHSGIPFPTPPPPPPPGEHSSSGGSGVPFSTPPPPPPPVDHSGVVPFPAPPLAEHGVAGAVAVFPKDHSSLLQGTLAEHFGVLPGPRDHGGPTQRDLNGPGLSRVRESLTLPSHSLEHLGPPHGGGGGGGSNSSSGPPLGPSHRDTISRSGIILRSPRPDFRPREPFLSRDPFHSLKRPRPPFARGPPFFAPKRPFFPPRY
P1: Cdh8 EC1-EC3 (Mus musculus); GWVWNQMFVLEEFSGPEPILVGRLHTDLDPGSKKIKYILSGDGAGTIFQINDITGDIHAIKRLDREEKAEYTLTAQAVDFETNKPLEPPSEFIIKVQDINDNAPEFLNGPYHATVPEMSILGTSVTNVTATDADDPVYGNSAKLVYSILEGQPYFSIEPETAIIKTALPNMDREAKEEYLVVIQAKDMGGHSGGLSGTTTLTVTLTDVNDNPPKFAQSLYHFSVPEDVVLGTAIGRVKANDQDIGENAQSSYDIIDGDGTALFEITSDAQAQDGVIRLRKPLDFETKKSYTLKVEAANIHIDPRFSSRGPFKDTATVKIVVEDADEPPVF
Substance | tested on | assay | test system | conditions | scale | quantity | result
RNA polymerase II CTD 19-residue peptide, phosphoserine S7 (Homo sapiens) (sequence not shown) | RPRD2 CID, to residue 161 | ITC | – | read off a plot | – | Kd | 82.8 µM
TATTTAGTTAGATATCTAACTAAATA (dsDNA (Staphylococcus aureus); blunt, self-complementary) | MarR family regulatory protein full length assumed A103V (Staphylococcus aureus, UniProt Q5Y812) | ITC | double-stranded DNA, one strand shown | – | – | Kd | 1 µM
RNA polymerase II CTD 19-residue peptide, phosphoserine S2 (Homo sapiens) (sequence not shown) | RPRD1A CID (Homo sapiens) | ITC | – | read off a plot | – | Kd | 8.4 µM
P1 W4A | cadherin-8 adhesive fragment (Mus musculus) | SPR | – | read off a plot, together with: Ca2+ | higher = more binding | SPR response | 2 RU
SPKYSPTSPKYSPTSPKYS (RNA polymerase II CTD (Homo sapiens); phosphoserine S2) | RPRD2 CID, to residue 161 | ITC | peptide | read off a plot | – | Kd | 5.2 µM

Some of these lines once more (study 1):
Strand | Kd [µM]
ACTAGTCCTTACTAATGAGAAGAAATCGTTCTTAAGTCCTATGACA | 0.63 ± 0.04
